Published values of several laboratories.
Numbered parts are unrelated; each lists some results of a single study.

Block 1
Target: Max dimerization protein 1, bHLH-zipper, MAX partner unstated (MXD1, Homo sapiens, UniProt Q05195, residues 56-136)
Technique: protein-binding microarray
Molecule type: double-stranded DNA, one strand shown
Matrix: in vitro
Concentration: not given
Setting: k-mer, scored over probes, only values ≥0.25
Reading: higher = stronger binding
Target sequence (chain): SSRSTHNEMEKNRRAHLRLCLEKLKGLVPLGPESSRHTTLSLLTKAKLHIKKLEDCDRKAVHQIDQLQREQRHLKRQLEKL
| Sequence | E-score |
| --- | --- |
| GCATGTAC | 0.308 |
| CATGCCTA | 0.371 |
| ATGTGTCA | 0.288 |
| ACGCTCGC | 0.264 |

Block 2
Target: Interferon regulatory factor 3, full length, phosphomimetic (IRF3, Homo sapiens, UniProt Q14653, residues 1-427, S386D/S396D/S398D/S402D/T404D/S405D)
Technique: protein-binding microarray
Molecule type: double-stranded DNA, one strand shown
Matrix: in vitro
Concentration: 2540 nM top
Setting: 60-bp whole probe
With: salmon DNA 0.4 mg/ml
Reference: random background probes
Reading: higher = stronger binding
Construct (chain): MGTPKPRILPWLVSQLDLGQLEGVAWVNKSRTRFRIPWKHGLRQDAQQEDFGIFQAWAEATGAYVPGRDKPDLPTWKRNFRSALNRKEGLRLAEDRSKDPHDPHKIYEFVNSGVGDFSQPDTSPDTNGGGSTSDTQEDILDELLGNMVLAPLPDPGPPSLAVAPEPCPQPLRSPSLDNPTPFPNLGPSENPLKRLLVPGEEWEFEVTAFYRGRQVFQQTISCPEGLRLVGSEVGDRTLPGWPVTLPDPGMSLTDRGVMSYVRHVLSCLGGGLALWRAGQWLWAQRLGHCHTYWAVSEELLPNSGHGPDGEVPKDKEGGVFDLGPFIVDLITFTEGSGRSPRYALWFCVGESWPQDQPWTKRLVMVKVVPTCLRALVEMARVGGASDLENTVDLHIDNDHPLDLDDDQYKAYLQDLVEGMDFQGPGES
| Sequence | fitted relative affinity [z-score] |
| --- | --- |
| GCCTAGCACTCAAAATTGTCTCTGTCACTGTGCTAGGTCTTGATTCGCTTGACGCTGCTG | -0.124 |
| GCCTAGCACTTAGGTATCCGTTTCGGTTAGTGCTAGGTCTTGATTCGCTTGACGCTGCTG | 7.69 |
| GCCTAGCACTTAGGTTTCGATATCGGTTAGTGCTAGGTCTTGATTCGCTTGACGCTGCTG | 6.69 |
| GCCTAGCACTCATGTCTGTTTCCTCTTACTGTGCTAGTCTTGATTCGCTTGACGCTGCTG | 3.14 |

Block 3
Target: Centromere-binding protein 1, full length, N-terminal tag (CBF1, Saccharomyces cerevisiae, UniProt P17106, residues 1-351)
Sequence of UniProt P17106 (whole entry, looked up): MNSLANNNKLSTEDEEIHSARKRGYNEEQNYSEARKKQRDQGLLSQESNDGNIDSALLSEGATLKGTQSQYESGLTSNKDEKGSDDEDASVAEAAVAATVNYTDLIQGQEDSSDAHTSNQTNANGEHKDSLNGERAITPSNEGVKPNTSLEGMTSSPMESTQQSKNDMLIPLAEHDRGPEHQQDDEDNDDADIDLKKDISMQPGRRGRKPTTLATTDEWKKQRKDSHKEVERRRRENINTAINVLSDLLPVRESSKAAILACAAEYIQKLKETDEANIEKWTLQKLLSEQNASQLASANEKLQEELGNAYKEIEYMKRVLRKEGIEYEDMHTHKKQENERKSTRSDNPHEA
Technique: protein-binding microarray
Molecule type: double-stranded DNA, one strand shown
Matrix: in vitro
Concentration: 0.8 µM
Setting: whole 60-bp probe, no competitor
Reading: higher = stronger binding
| Sequence | fluorescence intensity [a.u.] |
| --- | --- |
| GAAATCACGCTTCATCACCTGAGAAAAGTAACATAGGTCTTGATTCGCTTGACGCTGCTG | 896 |
| CTATTAAAAAAAAAAAAGCACGTGCTCAAAAATTTCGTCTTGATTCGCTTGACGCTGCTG | 25400 |
| CTAAGTAATTGCTTACACGTTCTAGAATAAAAATTCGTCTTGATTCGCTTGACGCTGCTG | 692 |
| GAAGGAACGGCAAATCACGAAAATTTTCTGTCATAGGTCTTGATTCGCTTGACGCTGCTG | 514 |
| TGTACGAAGCTATCACACACGTATATAGTAGTTAGGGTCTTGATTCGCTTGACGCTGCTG | 545 |
| GAATCTAACCATGATACCGTGACACAACTACATTAGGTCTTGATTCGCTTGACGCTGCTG | 1100 |

Mixed results
| Molecule | target | test | test system | conditions | scale | quantity | result |
| --- | --- | --- | --- | --- | --- | --- | --- |
| PhoQ, residues 284 288 289 292 302 303 ALAMYF | PhoP, residues 12 14 15 18 19 LHSVW (Escherichia coli, UniProt P23836) | Sort-seq, refers to: YFP reporter | E. coli | PhoQ-PhoP variant library, with: 10 µM Mg2+ | reference: high Mg2+ state, higher = stronger signaling | fold induction | 3.47 |

Excerpt of the above (block 3):
| Sequence | fluorescence intensity [a.u.] |
| --- | --- |
| GAATCTAACCATGATACCGTGACACAACTACATTAGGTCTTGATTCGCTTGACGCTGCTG | 1100 |
| TGTACGAAGCTATCACACACGTATATAGTAGTTAGGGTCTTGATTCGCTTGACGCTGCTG | 545 |
